Measured values of several laboratories.

| Compound | technique | medium | setting | direction | retention time [min] |
| --- | --- | --- | --- | --- | --- |
| CCCC[C@H](NC(=O)[C@@H](NC(=O)[C@H](CCC(=O)O)NC(=O)CNC(=O)[C@@H](NC(=O)[C@]1(C)CCCC=CCCC[C@](C)(NC(=O)[C@H](CCCCN)NC(=O)[C@H](CCCCN)NC(=O)[C@H](C)NC(=O)[C@H](CO)NC(=O)[C@H](Cc2c[nH]cn2)NC(=O)[C@H](CC(C)C)NC(=O)[C@H](Cc2ccccc2)NC(=O)[C@H](CCCCN)NC(=O)CNC(=O)[C@@H](NC(=O)CN)[C@@H](C)CC)C(=O)NCC(=O)N[C@@H](CCCCN)C(=O)N[C@@H](C)C(=O)N1)C(C)C)[C@@H](C)CC)C(=O)N[C@@H](CC(N)=O)C(=O)N[C@@H](CO)C(N)=O | HPLC C18 column | – | – | – | 12.9 |
| CC[C@H](C)[C@H](NC(=O)CN)C(=O)N[C@@H](CCCNC(=N)N)C(=O)N[C@@H](CCCNC(=N)N)C(=O)N[C@@H](Cc1ccccc1)C(=O)N[C@@H](CC(C)C)C(=O)N[C@@H](CCCNC(=N)N)C(=O)N[C@@H](CO)C(=O)N[C@@H](C)C(=O)N[C@@H](CCCNC(=N)N)C(=O)N[C@@H](CCCNC(=N)N)C(=O)N[C@@H](Cc1ccccc1)C(=O)N[C@H](C(=O)N[C@@H](CCCNC(=N)N)C(=O)N[C@@H](C)C(=O)N[C@@H](Cc1ccccc1)C(=O)N[C@@H](CCCNC(=N)N)C(N)=O)C(C)C | UPLC | TFA water/acetonitrile gradient | – | longer = more hydrophobic | 2.1 |
| N=C(N)NCCC[C@H](NC(=O)[C@@H]1CCCN1C(=O)[C@H](CCC(N)=O)NC(=O)[C@H](CCCCN)NC(=O)[C@H](CC(=O)O)NC(=O)[C@@H]1CCCN1C(=O)[C@H](Cc1ccccc1)NC(=O)CNC(=O)[C@H](CCC(=O)O)NC(=O)[C@H](Cc1ccccc1)NC(=O)[C@@H](N)Cc1ccccc1)C(=O)N[C@@H](CCCCN)C(=O)N[C@@H](CCCCN)C(N)=O | RP-HPLC | – | C18 column | – | 13 |
| CCCC[C@H](NC(=O)[C@H](Cc1ccc(O)cc1)NC(=O)[C@@H](N)CC(C)C)C(=O)N[C@@H](CCC(N)=O)C(=O)N[C@@H](CC(N)=O)C(=O)N[C@@H](Cc1ccc(O)cc1)C(=O)O | RP-HPLC C18 | – | – | – | 15.4 |
| CCCC[C@H](NC(=O)[C@@H](NC(=O)[C@H](CCC(=O)O)NC(=O)CNC(=O)[C@@H](NC(=O)[C@H](Cc1ccccc1)NC(=O)[C@H](C)NC(=O)[C@]1(C)CCCC=CCCC[C@](C)(NC(=O)[C@H](C)NC(=O)[C@H](CO)NC(=O)[C@H](Cc2c[nH]cn2)NC(=O)[C@H](CC(C)C)NC(=O)[C@H](Cc2ccccc2)NC(=O)[C@H](CCCCN)NC(=O)CNC(=O)[C@@H](NC(=O)CN)[C@@H](C)CC)C(=O)N[C@@H](CCCCN)C(=O)N[C@@H](Cc2ccccc2)C(=O)NCC(=O)N1)C(C)C)[C@@H](C)CC)C(=O)N[C@@H](CC(N)=O)C(=O)N[C@@H](CO)C(N)=O | HPLC C18 column | – | – | – | 19 |
| CC(C)C[C@H](NC(=O)[C@H](CC(N)=O)NC(=O)[C@H](CCC(N)=O)NC(=O)[C@H](CCC(N)=O)NC(=O)[C@H](CC(N)=O)NC(=O)[C@@H](N)CC(N)=O)C(=O)O | RP-HPLC C18 | – | – | – | 10.5 |
| CC[C@H](C)[C@@H]1NC(=O)[C@](C)(NC(=O)CN)CCCCCCC=CCCC[C@@](C)(C(=O)N[C@@H](CCCCN)C(=O)N[C@@H](CCCCN)C(=O)N[C@@H](Cc2ccccc2)C(=O)N[C@H](C(=O)N[C@@H](CCCCN)C(=O)N[C@@H](C)C(=O)N[C@@H](Cc2ccccc2)C(=O)N[C@@H](CCCCN)C(N)=O)C(C)C)NC(=O)[C@H](CO)NC(=O)[C@H](CCCCN)NC(=O)[C@H](CC(C)C)NC(=O)[C@H](Cc2ccccc2)NC(=O)[C@H](CCCCN)NC(=O)[C@H](CCCCN)NC1=O | UPLC | TFA water/acetonitrile gradient | – | longer = more hydrophobic | 2.45 |
| CC(C)C[C@H](NC(=O)[C@H](Cc1c[nH]c2ccccc12)NC(=O)[C@H](CCC(N)=O)NC(=O)[C@H](CCC(N)=O)NC(=O)[C@H](CC(N)=O)NC(=O)[C@@H](N)CC(N)=O)C(=O)O | RP-HPLC C18 | – | – | – | 15.9 |
| CC[C@H](C)[C@H](NC(=O)CN)C(=O)N[C@@H](CCCCN)C(=O)N[C@@H](CCCCN)C(=O)N[C@@H](Cc1ccccc1)C(=O)N[C@]1(C)CCCCCCC=CCCC[C@@](C)(C(=O)N[C@@H](CCCCN)C(=O)N[C@@H](C)C(=O)N[C@@H](Cc2ccccc2)C(=O)N[C@@H](CCCCN)C(N)=O)NC(=O)[C@H](Cc2ccccc2)NC(=O)[C@H](CCCCN)NC(=O)[C@H](CCCCN)NC(=O)[C@H](C)NC(=O)[C@H](CO)NC(=O)[C@H](CCCCN)NC1=O | UPLC | TFA water/acetonitrile gradient | – | longer = more hydrophobic | 2.41 |

A few entries again:
| Compound | technique | medium | setting | direction | retention time [min] |
| --- | --- | --- | --- | --- | --- |
| CC[C@H](C)[C@H](NC(=O)CN)C(=O)N[C@@H](CCCCN)C(=O)N[C@@H](CCCCN)C(=O)N[C@@H](Cc1ccccc1)C(=O)N[C@]1(C)CCCCCCC=CCCC[C@@](C)(C(=O)N[C@@H](CCCCN)C(=O)N[C@@H](C)C(=O)N[C@@H](Cc2ccccc2)C(=O)N[C@@H](CCCCN)C(N)=O)NC(=O)[C@H](Cc2ccccc2)NC(=O)[C@H](CCCCN)NC(=O)[C@H](CCCCN)NC(=O)[C@H](C)NC(=O)[C@H](CO)NC(=O)[C@H](CCCCN)NC1=O | UPLC | TFA water/acetonitrile gradient | – | longer = more hydrophobic | 2.41 |
